Assay results of several laboratories.
Each line is one published result; not all experiments were run side by side. Numbers after ± are the reported error. Ends that are not written are not given here. * marks the point of attachment.

CC(=O)O[C@@]12CO[C@@H]1C[C@H](O)[C@@]1(C)C(=O)[C@H](O)C3=C(C)[C@@H](OC(=O)[C@H](O)[C@@H](NC(=O)OC(C)(C)C)c4ccccc4)C[C@@](O)([C@@H](OC(=O)c4ccccc4)[C@H]21)C3(C)C  tumour growth inhibition (mice, HCC70 xenograft; iv, 3.75 mg/kg): 24%
COc1cccc2c1C(=O)c1c(O)c3c(c(O)c1C2=O)C[C@@](O)(C(=O)CO)C[C@@H]3O[C@H]1C[C@H](N)[C@H](O)[C@H](C)O1  tumour volume (mice bearing T47D xenografts; 5 mg/kg once weekly, 24 days after inoculation, treated 2 weeks): 45.3 ± 14.2 mm3
COc1cccc2c1C(=O)c1c(O)c3c(c(O)c1C2=O)C[C@@](O)(C(=O)CO)C[C@@H]3O[C@H]1C[C@H](N)[C@H](O)[C@H](C)O1  tumour volume (mice with solid Ehrlich carcinoma; ip, 5 mg/kg): 112 ± 9.2 mm³
CC(=O)O[C@@]12CO[C@@H]1C[C@H](O)[C@@]1(C)C(=O)[C@H](O)C3=C(C)[C@@H](OC(=O)[C@H](O)[C@@H](NC(=O)OC(C)(C)C)c4ccccc4)C[C@@](O)([C@@H](OC(=O)c4ccccc4)[C@H]21)C3(C)C  tumour volume (mice bearing PC-3 xenografts; 5 mg/kg once weekly, 18 days after inoculation, treated 3 weeks): 141 ± 53.6 mm3
CC(=O)O[C@H]1C(=O)[C@@]2(C)[C@H]([C@H](OC(=O)c3ccccc3)[C@]3(O)C[C@H](OC(=O)[C@H](O)[C@@H](NC(=O)c4ccccc4)c4ccccc4)C(C)=C1C3(C)C)[C@]1(OC(C)=O)CO[C@@H]1C[C@@H]2O  tumour growth inhibition (female NSG mice Hep3B xenograft; iv, 24 mg/kg, 336 h, daily for 5 days): 79%
CCN(CC)c1ccc2nc3ccc(N=Nc4ccc(N(C)CCCC(=O)NCCCC[C@H](NC(=O)CNC(=O)[C@H](CCCNC(=N)N)NC(=O)[C@@H](NC(=O)CNC(=O)[C@H](CC(C)C)NC(=O)[C@@H]5CCCN5C(=O)CNC(=O)CCCCC[N+]5=C(C=CC=CC=C6N(CC)c7ccc8c(S(=O)(=O)[O-])cc(S(=O)(=O)O)cc8c7C6(C)C)C(C)(C)c6c5ccc5c(S(=O)(=O)[O-])cc(S(=O)(=O)O)cc65)C(C)C)C(=O)NCC(=O)NCC(=O)NCCOCCOCCOCCOCCOCCOCCOCCOCCOCCOCCOCCO)cc4)cc3[n+](-c3ccccc3)c2c1  tumour to background ratio (NIR fluorescence imaging; nude mice SCC-7 tumour; iv, 10 nmol, 2 h; baseline: muscle): 3.73 ± 0.31
COc1cccc2c1C(=O)c1c(O)c3c(c(O)c1C2=O)C[C@@](O)(C(=O)CO)C[C@@H]3O[C@H]1C[C@H](N)[C@H](O)[C@H](C)O1  tumour volume (mice, BT-474 xenograft; intraperitoneal, 1.5 mg/kg, week 5, after fourth treatment; baseline: pretreatment): 106 ± 59.6%
CCN(CC)CCCC(C)Nc1ccnc2cc(Cl)ccc12 (stereo not shown)  tumour growth inhibition (tumour weight; nude mice, ECa-109 xenograft; intraperitoneal, 60 mg/kg every other day, 2 weeks, together with: sulforaphane 5 mg/kg): 24.3%
COc1cccc2c1C(=O)c1c(O)c3c(c(O)c1C2=O)C[C@@](O)(C(=O)CO)C[C@@H]3O[C@H]1C[C@H](N)[C@H](O)[C@H](C)O1  tumour growth inhibition (BALB/c nude mice, HCT-8/ADR xenograft; peritumoral, 2 mg/kg every two days, 22 d): 79.1%
Palmitoyl-PCSTSSMA (N-palmitoyl; Palmitoyl = CCCCCCCCCCCCCCCC(=O)*)  tumour weight (AsPC-1, male SCID mice, subcutaneous AsPC-1 xenograft; intratumoral, 500 µg/mouse/day, 3 weeks): 167 ± 29.5 mg

Some of these lines once more:
CC(=O)O[C@H]1C(=O)[C@@]2(C)[C@H]([C@H](OC(=O)c3ccccc3)[C@]3(O)C[C@H](OC(=O)[C@H](O)[C@@H](NC(=O)c4ccccc4)c4ccccc4)C(C)=C1C3(C)C)[C@]1(OC(C)=O)CO[C@@H]1C[C@@H]2O  tumour growth inhibition (female NSG mice Hep3B xenograft; iv, 24 mg/kg, 336 h, daily for 5 days): 79%
